Experimental data collected from several papers.
Several values in a cell are separate wells, animals, samples, runs or records. Numbers after ± are the reported error.
UCHL1: Ubiquitin carboxyl-terminal hydrolase isozyme L1 (UCHL1, Homo sapiens, UniProt P09936)
Chain of UniProt P09936 (whole entry, looked up): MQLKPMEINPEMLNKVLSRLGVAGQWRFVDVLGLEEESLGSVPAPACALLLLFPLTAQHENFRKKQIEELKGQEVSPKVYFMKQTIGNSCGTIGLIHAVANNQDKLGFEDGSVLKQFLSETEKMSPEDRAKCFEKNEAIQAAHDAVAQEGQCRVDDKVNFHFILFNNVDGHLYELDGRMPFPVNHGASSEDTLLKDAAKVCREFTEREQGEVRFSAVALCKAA
Faah: Fatty-acid amide hydrolase 1 (Faah, Rattus norvegicus, UniProt P97612)
Chain of UniProt P97612 (whole entry, looked up): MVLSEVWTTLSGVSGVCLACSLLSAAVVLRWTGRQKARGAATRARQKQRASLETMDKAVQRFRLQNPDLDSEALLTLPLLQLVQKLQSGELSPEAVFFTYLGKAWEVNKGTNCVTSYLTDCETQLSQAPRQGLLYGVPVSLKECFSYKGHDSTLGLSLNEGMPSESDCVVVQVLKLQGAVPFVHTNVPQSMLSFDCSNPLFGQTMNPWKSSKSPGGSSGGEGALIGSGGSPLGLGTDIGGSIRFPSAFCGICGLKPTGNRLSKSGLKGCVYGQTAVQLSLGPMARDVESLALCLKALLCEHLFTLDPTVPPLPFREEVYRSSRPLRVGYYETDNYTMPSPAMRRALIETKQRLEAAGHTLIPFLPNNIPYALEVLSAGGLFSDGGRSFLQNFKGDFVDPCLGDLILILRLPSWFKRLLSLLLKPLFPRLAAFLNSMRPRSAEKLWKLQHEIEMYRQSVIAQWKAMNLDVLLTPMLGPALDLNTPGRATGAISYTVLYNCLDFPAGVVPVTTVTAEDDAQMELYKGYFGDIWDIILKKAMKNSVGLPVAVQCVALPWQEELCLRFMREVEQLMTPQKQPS
Nicotinic acetylcholine receptor alpha1/beta1/epsilon/delta: Nicotinic acetylcholine receptor alpha1/beta1/epsilon/delta (Mus musculus, UniProt P02716+P04756+P09690+P20782)
Chain of UniProt P77488 (whole entry, unmodified, looked up): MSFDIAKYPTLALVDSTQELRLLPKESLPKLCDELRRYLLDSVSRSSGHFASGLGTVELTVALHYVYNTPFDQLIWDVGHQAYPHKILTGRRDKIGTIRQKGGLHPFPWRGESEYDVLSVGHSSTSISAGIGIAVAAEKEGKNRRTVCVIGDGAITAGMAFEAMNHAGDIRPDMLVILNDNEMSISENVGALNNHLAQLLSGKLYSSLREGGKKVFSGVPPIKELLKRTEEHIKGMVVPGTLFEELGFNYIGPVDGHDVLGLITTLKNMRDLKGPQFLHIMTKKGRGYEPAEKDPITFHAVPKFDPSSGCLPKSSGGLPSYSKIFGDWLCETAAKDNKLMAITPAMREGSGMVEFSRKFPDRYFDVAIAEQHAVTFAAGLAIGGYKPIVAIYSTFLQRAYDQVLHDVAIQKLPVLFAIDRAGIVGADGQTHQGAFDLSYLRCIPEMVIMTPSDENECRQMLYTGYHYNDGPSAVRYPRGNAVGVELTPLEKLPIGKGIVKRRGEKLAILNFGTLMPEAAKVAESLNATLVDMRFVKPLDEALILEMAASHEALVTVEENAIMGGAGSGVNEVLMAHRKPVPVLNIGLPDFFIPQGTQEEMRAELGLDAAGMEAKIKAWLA
Chain of UniProt P20782 (whole entry, looked up): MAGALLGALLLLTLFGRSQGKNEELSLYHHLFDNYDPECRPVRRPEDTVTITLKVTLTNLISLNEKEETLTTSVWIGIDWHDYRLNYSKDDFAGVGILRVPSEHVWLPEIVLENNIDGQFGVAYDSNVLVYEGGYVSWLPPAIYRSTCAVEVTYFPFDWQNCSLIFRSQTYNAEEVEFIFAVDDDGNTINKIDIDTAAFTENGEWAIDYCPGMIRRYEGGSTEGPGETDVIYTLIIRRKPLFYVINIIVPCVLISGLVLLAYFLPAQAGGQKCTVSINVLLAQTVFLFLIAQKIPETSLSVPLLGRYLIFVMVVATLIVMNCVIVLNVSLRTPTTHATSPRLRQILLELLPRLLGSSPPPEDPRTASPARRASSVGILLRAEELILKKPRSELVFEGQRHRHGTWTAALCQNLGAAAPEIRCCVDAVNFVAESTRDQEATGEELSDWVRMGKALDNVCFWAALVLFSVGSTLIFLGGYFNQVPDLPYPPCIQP
Chain of UniProt P04756 (whole entry, looked up): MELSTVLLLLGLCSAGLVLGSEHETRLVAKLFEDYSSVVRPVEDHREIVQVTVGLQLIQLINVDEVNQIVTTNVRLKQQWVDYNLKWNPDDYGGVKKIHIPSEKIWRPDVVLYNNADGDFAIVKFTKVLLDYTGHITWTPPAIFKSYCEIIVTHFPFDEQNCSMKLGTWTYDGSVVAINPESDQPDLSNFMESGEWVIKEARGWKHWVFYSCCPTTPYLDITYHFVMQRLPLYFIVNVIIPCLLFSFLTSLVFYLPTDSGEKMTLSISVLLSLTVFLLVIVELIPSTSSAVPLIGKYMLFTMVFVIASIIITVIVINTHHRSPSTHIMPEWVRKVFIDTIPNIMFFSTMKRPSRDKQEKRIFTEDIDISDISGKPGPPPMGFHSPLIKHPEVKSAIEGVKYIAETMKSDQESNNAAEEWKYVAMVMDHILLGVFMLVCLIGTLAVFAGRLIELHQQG
Chain of UniProt Q06520 (whole entry, looked up): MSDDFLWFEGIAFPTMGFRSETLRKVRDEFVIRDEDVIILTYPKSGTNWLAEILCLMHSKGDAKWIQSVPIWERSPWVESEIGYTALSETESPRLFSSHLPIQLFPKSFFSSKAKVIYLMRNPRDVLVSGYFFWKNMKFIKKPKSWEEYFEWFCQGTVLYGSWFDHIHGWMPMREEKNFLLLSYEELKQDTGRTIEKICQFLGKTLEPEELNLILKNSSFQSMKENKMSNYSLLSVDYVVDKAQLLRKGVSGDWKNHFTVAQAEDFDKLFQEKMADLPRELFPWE
Chain of UniProt Q62351 (whole entry, looked up): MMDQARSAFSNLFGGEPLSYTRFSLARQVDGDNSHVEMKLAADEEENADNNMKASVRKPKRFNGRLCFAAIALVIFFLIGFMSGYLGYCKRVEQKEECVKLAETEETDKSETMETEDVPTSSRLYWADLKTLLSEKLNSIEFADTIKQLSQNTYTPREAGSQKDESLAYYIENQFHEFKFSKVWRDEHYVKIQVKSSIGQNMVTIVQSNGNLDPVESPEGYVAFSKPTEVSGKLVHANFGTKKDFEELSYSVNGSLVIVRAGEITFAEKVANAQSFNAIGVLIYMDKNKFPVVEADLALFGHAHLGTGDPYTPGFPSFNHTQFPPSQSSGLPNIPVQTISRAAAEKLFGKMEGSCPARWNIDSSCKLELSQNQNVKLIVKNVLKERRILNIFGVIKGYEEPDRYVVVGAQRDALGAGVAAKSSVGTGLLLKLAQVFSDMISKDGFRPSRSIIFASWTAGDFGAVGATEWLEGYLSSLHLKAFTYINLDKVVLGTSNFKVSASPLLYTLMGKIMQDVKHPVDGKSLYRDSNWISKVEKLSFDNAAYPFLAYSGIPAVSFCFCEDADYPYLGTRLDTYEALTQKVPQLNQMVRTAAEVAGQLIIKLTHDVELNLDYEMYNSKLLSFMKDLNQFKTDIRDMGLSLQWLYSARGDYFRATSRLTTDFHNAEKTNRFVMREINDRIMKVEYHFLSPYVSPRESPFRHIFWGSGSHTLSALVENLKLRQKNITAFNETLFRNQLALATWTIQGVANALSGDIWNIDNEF
Chain of UniProt P02716 (whole entry, looked up): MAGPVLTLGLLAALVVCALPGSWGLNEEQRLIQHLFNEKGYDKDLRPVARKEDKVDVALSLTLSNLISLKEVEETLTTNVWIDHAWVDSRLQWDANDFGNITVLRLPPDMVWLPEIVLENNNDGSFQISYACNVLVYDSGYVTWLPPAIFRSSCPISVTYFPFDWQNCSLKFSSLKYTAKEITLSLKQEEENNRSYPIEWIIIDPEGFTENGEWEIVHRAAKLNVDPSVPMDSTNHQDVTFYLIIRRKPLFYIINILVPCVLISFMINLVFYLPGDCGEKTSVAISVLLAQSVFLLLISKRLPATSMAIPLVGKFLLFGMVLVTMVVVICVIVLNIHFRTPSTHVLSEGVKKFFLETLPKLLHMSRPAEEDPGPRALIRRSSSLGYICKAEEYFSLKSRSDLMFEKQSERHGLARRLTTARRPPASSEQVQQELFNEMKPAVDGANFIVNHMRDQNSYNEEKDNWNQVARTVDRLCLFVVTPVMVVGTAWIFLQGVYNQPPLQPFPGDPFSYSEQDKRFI
Chain of UniProt P09690 (whole entry, looked up): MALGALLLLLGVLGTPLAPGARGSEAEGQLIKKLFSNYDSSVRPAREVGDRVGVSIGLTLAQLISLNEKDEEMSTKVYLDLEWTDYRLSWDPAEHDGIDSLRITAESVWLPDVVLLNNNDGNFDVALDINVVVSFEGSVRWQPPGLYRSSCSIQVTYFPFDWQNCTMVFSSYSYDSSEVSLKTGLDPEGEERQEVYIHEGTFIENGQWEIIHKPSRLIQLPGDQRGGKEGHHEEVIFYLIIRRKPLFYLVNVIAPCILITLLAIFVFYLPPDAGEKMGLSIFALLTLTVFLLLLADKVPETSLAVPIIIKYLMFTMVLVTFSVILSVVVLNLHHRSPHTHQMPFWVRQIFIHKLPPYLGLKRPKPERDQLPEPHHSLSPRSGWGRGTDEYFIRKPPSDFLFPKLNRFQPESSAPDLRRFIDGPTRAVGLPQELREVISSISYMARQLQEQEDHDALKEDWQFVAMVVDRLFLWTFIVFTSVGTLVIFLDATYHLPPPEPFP
Chain of UniProt Q96PF2 (whole entry, looked up): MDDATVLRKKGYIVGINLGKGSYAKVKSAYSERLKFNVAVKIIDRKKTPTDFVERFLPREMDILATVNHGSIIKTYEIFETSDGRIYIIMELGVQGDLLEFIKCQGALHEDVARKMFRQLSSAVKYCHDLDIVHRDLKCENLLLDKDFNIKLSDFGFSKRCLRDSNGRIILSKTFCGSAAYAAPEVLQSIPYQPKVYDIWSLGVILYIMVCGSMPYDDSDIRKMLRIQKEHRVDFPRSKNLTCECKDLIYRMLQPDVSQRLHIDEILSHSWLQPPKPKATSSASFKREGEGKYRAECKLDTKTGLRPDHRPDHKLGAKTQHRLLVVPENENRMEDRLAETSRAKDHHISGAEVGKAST

The labelling of `O=C(CCl)c1ccccn1` is reported as 17.9% (UCHL1; covalent, intact protein LC-MS; 12.5 µM).
`Cc1nn(C)cc1-c1nc2c(N3CCN(Cc4ccc(Cl)cc4)CC3)c(Cl)cnc2[nH]1` gave a remaining binding of 100% (Serine/threonine-protein kinase SIK1 (SIK1, Homo sapiens, UniProt P57059); binding, KINOMEscan; 1 µM).
`COc1cc(N)c(Cl)cc1C(=O)NC1CN2CCC1CC2` (stereo not drawn) — result for “log2 fold change”: 0.113 (G-protein coupled receptor 84 (GPR84, Homo sapiens, UniProt Q9NQS5); β-arrestin recruitment, TANGO luminescence; concentration not given; reference: basal luminescence).
For `COc1ccc(N2C(=O)N(c3c(C)cccc3Cl)Cc3cnc(Nc4ccc(C5CCN(C)CC5)cc4OC)nc32)nc1`, the inhibition was 97% (Ephrin type-A receptor 5 (EPHA5, Homo sapiens, UniProt P54756); kinase activity; 0.5 µM).
`O=C(Nc1cnccc1Cl)N1CCN(Cc2ccc3c(c2)OC(F)(F)O3)CC1` gave an inhibition of 14% (AMPA receptor, rat; binding; 50 µM, added: [3H]AMPA).
For `C[C@H]1CN(c2n[nH]c3nc(N[C@H]4CC[C@H](NS(=O)(=O)CCC(F)(F)F)CC4)ncc23)CCO1`, the relative abundance was 1.14 (Prohibitin 1 (PHB1, Homo sapiens, UniProt P35232); competitor, Kinobeads competition; human cell extract; 20 µM; reference: vehicle).
`CC12CCC(CC1)C(C)(C)O2` gave a ΔG of -6.7 kcal/mol (1,8-cineole 2-endo-monooxygenase (cinA, Citrobacter braakii, UniProt Q8VQF6, N242A); isothermal titration calorimetry; N242A mutant).
The inhibition of `CN(C(=O)n1cnc(-c2ccc[n+]([O-])c2)c1)C1CCCCC1` is reported as 57.7% (Faah; probe labelling, inhibitor, competitive ABPP; rat brain membrane fraction; 10 µM, added: azido-FP probe).
For `NC(=O)c1coc(C(=O)CCl)c1`, the labelling was 28.2% (UCHL1; covalent, intact protein LC-MS; 12.5 µM).
`CN(C(=O)n1cnc(-c2ccc[n+]([O-])c2)c1)C1CCCCC1` has a fold change of -89.5 (Faah; enzyme activity, ABPP; rat, brain; oral, 100 mg/kg/day, 7 days; reference: vehicle).
`COc1cc(Nc2ncc(F)c(Nc3ccc4c(n3)NC(=O)C(C)(C)O4)n2)cc(OC)c1OC` has an inhibition of 43% (Mitogen-activated protein kinase 6 (MAPK6, Homo sapiens, UniProt Q16659); binding, KINOMEscan; 10 µM, ERK3 kinase).
`Clc1cccc(COc2ccccc2CNCc2cccnc2)c1` — result for “highest concentration without inhibition”: greater than 200 µM (aacA-aphD, AAC(6')-Ie domain (Staphylococcus aureus, UniProt P0A0C1); neomycin acetylation, inhibitor; added: neomycin).
For `CCCCOP(=O)(O)C(C)=O`, “IC50 fold increase” read 11 fold (1-deoxy-D-xylulose-5-phosphate synthase (dxs, Escherichia coli, UniProt P77488, R99A); inhibitor, DXPS-IspC coupled; reference: wild-type enzyme).
The Vmax of `Oc1c(Cl)cc(-c2ccc(F)cc2)cc1Cl` is reported as 30 nmol/min/mg and 29.7 nmol/min/mg (Sulfotransferase 2A1 (SULT2A1, Homo sapiens, UniProt Q06520); substrate; pH 7.0, 37 °C, added: PAPS 200 µM).
With `Cn1cc(C(=O)CCl)cc1C(=O)C(Cl)(Cl)Cl` the labelling was 14.9% (UCHL1; covalent, intact protein LC-MS; 12.5 µM).
`CC[C@@H](C)[C@@H](NC(=O)[C@@H](Cc1ccc(O)cc1)NC(=O)[C@H]1CCCN1C(=O)[C@@H](CCCNC(=N)N)NC(=O)[C@H](N)Cc1c[nH]cn1)C(=O)N[C@H](C)C(=O)N[C@H](Cc1c[nH]cn1)C(=O)N[C@H](CCCNC(=N)N)C(=O)N[C@H](CCCCNC(=O)c1cccc(S(=O)(=O)F)c1)C(=O)N[C@H](Cc1ccc(O)cc1)C(=O)N[C@H](CO)C(=O)N[C@H](Cc1ccccc1)C(N)=O` gave a surface expression of 0.404 and 0.454 (Transferrin receptor protein 1 (Tfrc, Mus musculus, UniProt Q62351); flow cytometry; B16; 48 h, unit not given; reference: 0 h).
`[2H]c1c([2H])c([C@]2([2H])CCCN2C(=O)C(C)(C)Oc2ccc3cn[nH]c3c2)c([2H])c([2H])c1C([2H])([2H])[2H]` gave a remaining binding of 80% (Serine/threonine-protein kinase SIK3 (SIK3, Homo sapiens, UniProt Q9Y2K2); KINOMEscan; 1 µM; reference: DMSO control).
For `Nc1ncnc2c1ncn2[C@@H]1O[C@H](COP(=O)(O)OP(=O)(O)OP(=O)(O)O)[C@@H](O)[C@H]1O`, the Vmax was 4520 ± 330 nmol/min/mg (cAMP-dependent protein kinase catalytic subunit alpha (PRKACA, Homo sapiens, UniProt P17612); substrate, HPLC; 15 min, pH 7.4, 25 °C, added: 25 µM Rh-MAB-Kemptide).
For `C[N+]1(C)CCN(c2ccccc2)CC1`, “response relative to ACh” read 10% (Nicotinic acetylcholine receptor alpha1/beta1/epsilon/delta; peak current, agonist, two-electrode voltage clamp; Xenopus oocytes; 30 µM, mouse receptor; reference: ACh 30 µM).
With `CC(=O)P(=O)(O)OCCc1cn([C@H](Cc2ccccc2)C(=O)O)nn1` the IC15 was less than 65 nM (1-deoxy-D-xylulose-5-phosphate synthase (dxs, Escherichia coli, UniProt P77488); enzyme activity, inhibitor; added: 2 x Km pyruvate).
`C[C@@H](NC(=O)[C@@H](N)Cc1ccc(O)cc1)C(=O)NCC(=O)N(C)[C@@H](Cc1ccccc1)C(=O)NCCO` has a GTPγS binding of 22.2% and 26.8% and 30.1% and 32.2% and 21.1% and 24.8% and 23.6% and 30.5% (Mu-type opioid receptor (Oprm1, Mus musculus, UniProt P42866); agonist; mouse spinal cord membranes; 316 nM; reference: baseline).
With `CC(C)(C)c1cc(C=C(C#N)C#N)cc(Br)c1O` the remaining activity was 82.3 ± 4.38% (Transient receptor potential cation channel subfamily M member 8 (TRPM8, Homo sapiens, UniProt Q7Z2W7); antagonist; HEK293; 5 µM; reference: control).
The inhibition of `CCC1=C(C)CN(C(=O)NCCc2ccc(S(=O)(=O)NC(=O)N[C@H]3CC[C@H](C)CC3)cc2)C1=O` is reported as 9.2 ± 9.1% (Ribosomal processing cysteine protease Prp (prp, Staphylococcus aureus, UniProt Q2FXS9, N63Q); enzyme activity, inhibitor; 10 µM, prp 21.4 nM, added: FITC peptide substrate 0.5 µM).
With `Cc1ncsc1-c1ccc(CNC(=O)[C@@H]2C[C@@H](O)CN2C(=O)[C@@H](NC(=O)C2(F)CC2)C(C)(C)C)c(OCCOc2ccc(CN3CCN(c4cc(-c5ccccc5O)nnc4N)CC3)cc2)c1` the Dmax was 95% (SWI/SNF-related matrix-associated actin-dependent regulator of chromatin subfamily A member 4 (SMARCA4, Homo sapiens, UniProt P51532); degrader, immunoblot; SMARCA4 wild-type lung cancer cells; 96 h, median of twelve cell lines).
`CC(=O)NC[C@H]1[C@H](O)[C@H](O)[C@@H]2[C@H](O)C[C@@H](CO)N21` has an inhibition of 51.3% and 49.1% (β-N-acetylglucosaminidase; enzyme activity, inhibitor, colorimetric; Canavalia ensiformis; 0.644 nM, added: p-nitrophenyl GlcNAc substrate).
The ACh response of `CC[N+]1(CC)CCN(c2cccc(Br)c2)CC1` is reported as 0.537 ± 0.254 (Nicotinic acetylcholine receptor alpha1/beta1/epsilon/delta; ion current, inhibitor, two-electrode voltage clamp; Xenopus oocytes; 30 µM, after co-application, unit not given, added: ACh 30 µM; reference: ACh alone).
For `COc1cc(/C=C/c2ccc(O)cc2)cc(OC)c1`, the ∆G was -8.26 kcal/mol (O-methyltransferase (Sorghum bicolor, UniProt A0A1B6PFV1, W279A); isothermal titration calorimetry; apo protein).
`CC(=O)CCCNC(=O)CCNC(=O)[C@H](O)C(C)(C)COP(=O)(O)OP(=O)(O)OC[C@H]1O[C@@H](n2cnc3c(N)ncnc32)[C@H](O)[C@@H]1OP(=O)(O)O` — result for “apparent binding constant”: 27 ± 3 µM (gltA, with oxaloacetate (Thermoplasma acidophilum, UniProt P21553, D318G); complex formation, initial-velocity fluorescence kinetics; pH 8.0, 20 °C, added: oxaloacetate 75 µM).
For `CCCCCCCCCC(=O)O`, the enthalpy change was -14.9 kcal/mol (Albumin (ALB, Homo sapiens, UniProt P02768); isothermal titration calorimetry; concentration not given, 25 °C, first binding site, HSA 20 µM).
`Nc1ncc(-c2nc(N3CCOCC3)nc(N3CCOCC3)n2)c(C(F)F)n1` has a remaining binding of 59% (Transient receptor potential cation channel subfamily M member 6 (TRPM6, Homo sapiens, UniProt Q9BX84); KINOMEscan; 10 µM; reference: control).
The median ratio of `O=C(c1ccc(Cl)cc1)N1CCN2C(=O)N(OC(=O)N3CCOc4ccccc43)C(=O)C2C1` (stereo not drawn) is reported as 0.94 (Neutral cholesterol ester hydrolase 1 (NCEH1, Homo sapiens, UniProt Q6PIU2); enzyme activity, inhibitor, MS-based ABPP; SW-620 conditioned medium; 10 µM, 1 h, 37 °C; reference: compound over DMSO, lower = stronger inhibition).
With `O=C(Nc1cccnn1)N1CCC(=Cc2cccc(Oc3ccc(C(F)(F)F)cn3)c2)CC1` the inhibition was 20% (Testis-specific serine/threonine-protein kinase 2 (TSSK2, Homo sapiens, UniProt Q96PF2); kinase activity, inhibitor; 50 µM, human, added: CHKtide).
`C[C@H](N)C(=O)N[C@@H](CCCNC(=N)N)C(=O)N[C@H](C(=O)N[C@@H](CCCCC(C)(C)C)C(=O)N[C@@H](CCC(N)=O)C(=O)N[C@H](C(=O)N[C@@H](C)C(=O)N[C@@H](CCCNC(N)=O)C(=O)N[C@@H](CCCCN)C(=O)N[C@@H](CO)C(=O)N[C@H](C(=O)NCC(=O)NCC(=O)N[C@@H](CCCCN)C(=O)N[C@@H](C)C(=O)N[C@@H](Cc1ccc(O)cc1)C(N)=O)[C@@H](C)O)[C@@H](C)O)[C@@H](C)O` — result for “preference over Kme3 peptide”: 1.7 fold (SGF29, TTD (Homo sapiens, UniProt Q96ES7); binding, ITC; reference: Kme3 peptide KD over compound KD).
For `CCOC(=O)COc1ccc2c(=O)c3ccccc3oc2c1`, the reaction velocity was 0.0031 a.u. (Acetylcholinesterase (ache, Electrophorus electricus, UniProt O42275); enzyme activity; 0.42 µM, added: substrate 3.45 mM; higher = faster reaction).
Under “normalised MST signal”, `O=C(O)Cc1c[nH]cn1` is recorded as 0.105 (Sodium- and chloride-dependent taurine transporter (SLC6A6, Homo sapiens, UniProt P31641, Y138A); binding, microscale thermophoresis; 31.3 µM, room temperature, added: 50 nM labelled protein; higher = more binding).
With `NCCc1c[nH]c2ccc(O)cc12` the Km was 160 ± 30 µM (AANAT1 Rangifer tarandus; substrate, DTNB colorimetric; added: acetyl-CoA).
`CC(C)[C@@H](O)CC[C@@H](C)[C@H]1CC[C@H]2[C@@H]3CC=C4C[C@@H](O)CC[C@]4(C)[C@H]3CC[C@]12C` has a current response of 180 ± 6.5% (Glutamate NMDA receptor; GRIN1/GRIN2B (GRIN1/GRIN2B, Homo sapiens, UniProt Q05586+Q13224, P553A); positive allosteric modulator, two-electrode voltage clamp; Xenopus oocytes expressing GluN2B-P553A; 10 µM, 0.02% cremophor, added: 100 µM glutamate and glycine; reference: without compound).
`CN1CCN(c2cc(-c3ccncc3)c(-c3ccc4ccccc4c3)nn2)CC1` gave an activation of 0% (5-hydroxytryptamine receptor 2B (HTR2B, Homo sapiens, UniProt P41595); agonist, FLIPR; 12.5 µM).
For `CC1(C)C(C=C(Cl)Cl)C1C(=O)OCc1cccc(Oc2ccccc2)c1` (stereo not drawn), the remaining activity was 94.2% (uncharacterized protein (Anopheles coluzzii, UniProt A0A6E8VQK1); enzyme activity, inhibitor; Sf9 cell homogenate; 4.651 µM, 0.1667 h, added: α-naphthyl acetate substrate; reference: no inhibitor).

For quick reference, copied from above:
`Nc1ncc(-c2nc(N3CCOCC3)nc(N3CCOCC3)n2)c(C(F)F)n1` has a remaining binding of 59% (Transient receptor potential cation channel subfamily M member 6 (TRPM6, Homo sapiens, UniProt Q9BX84); KINOMEscan; 10 µM; reference: control).
The median ratio of `O=C(c1ccc(Cl)cc1)N1CCN2C(=O)N(OC(=O)N3CCOc4ccccc43)C(=O)C2C1` (stereo not drawn) is reported as 0.94 (Neutral cholesterol ester hydrolase 1 (NCEH1, Homo sapiens, UniProt Q6PIU2); enzyme activity, inhibitor, MS-based ABPP; SW-620 conditioned medium; 10 µM, 1 h, 37 °C; reference: compound over DMSO, lower = stronger inhibition).
With `O=C(Nc1cccnn1)N1CCC(=Cc2cccc(Oc3ccc(C(F)(F)F)cn3)c2)CC1` the inhibition was 20% (Testis-specific serine/threonine-protein kinase 2 (TSSK2, Homo sapiens, UniProt Q96PF2); kinase activity, inhibitor; 50 µM, human, added: CHKtide).
